Published values of several laboratories.
Each line is one published result; not all experiments were run side by side. “And” joins repeats or separate records; there may be more than shown. Numbers after ± are the reported error.
UniProt Q64663, sequence (whole entry, unmodified, looked up): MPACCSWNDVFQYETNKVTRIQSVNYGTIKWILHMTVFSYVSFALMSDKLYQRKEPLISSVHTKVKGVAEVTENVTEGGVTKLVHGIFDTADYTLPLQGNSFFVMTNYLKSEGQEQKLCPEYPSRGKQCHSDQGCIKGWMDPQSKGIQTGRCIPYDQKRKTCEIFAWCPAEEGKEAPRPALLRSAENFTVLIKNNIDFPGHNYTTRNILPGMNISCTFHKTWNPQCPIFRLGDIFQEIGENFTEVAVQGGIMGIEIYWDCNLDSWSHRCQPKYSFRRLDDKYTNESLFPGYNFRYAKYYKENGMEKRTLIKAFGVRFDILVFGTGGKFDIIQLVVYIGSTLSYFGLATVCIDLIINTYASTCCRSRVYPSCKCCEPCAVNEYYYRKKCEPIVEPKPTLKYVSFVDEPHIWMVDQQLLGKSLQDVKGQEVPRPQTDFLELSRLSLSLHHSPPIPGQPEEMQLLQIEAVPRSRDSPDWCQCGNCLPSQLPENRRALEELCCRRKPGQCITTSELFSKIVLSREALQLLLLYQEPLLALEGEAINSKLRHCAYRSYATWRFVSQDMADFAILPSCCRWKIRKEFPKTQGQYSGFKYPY
UniProt Q9SM50, sequence (whole entry, looked up): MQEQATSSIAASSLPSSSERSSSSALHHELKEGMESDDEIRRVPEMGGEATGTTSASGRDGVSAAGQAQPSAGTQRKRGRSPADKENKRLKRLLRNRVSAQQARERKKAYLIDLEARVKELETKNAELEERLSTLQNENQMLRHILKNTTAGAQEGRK
UniProt Q13IY4, sequence (whole entry, looked up): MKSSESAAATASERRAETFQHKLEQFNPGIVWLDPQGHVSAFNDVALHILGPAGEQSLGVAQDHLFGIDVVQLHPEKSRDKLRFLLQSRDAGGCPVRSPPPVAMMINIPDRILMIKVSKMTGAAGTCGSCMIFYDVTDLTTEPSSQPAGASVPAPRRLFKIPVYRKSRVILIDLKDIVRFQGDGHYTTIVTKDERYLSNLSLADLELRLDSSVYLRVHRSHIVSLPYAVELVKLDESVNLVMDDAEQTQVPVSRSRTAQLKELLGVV
UniProt Q9NSP4, sequence (whole entry, looked up): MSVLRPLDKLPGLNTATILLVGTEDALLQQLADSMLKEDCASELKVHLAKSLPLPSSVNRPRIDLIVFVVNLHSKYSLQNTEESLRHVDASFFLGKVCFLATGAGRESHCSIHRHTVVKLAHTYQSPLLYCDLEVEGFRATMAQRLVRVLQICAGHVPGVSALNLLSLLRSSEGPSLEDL
UniProt G5EF15, sequence (whole entry, looked up): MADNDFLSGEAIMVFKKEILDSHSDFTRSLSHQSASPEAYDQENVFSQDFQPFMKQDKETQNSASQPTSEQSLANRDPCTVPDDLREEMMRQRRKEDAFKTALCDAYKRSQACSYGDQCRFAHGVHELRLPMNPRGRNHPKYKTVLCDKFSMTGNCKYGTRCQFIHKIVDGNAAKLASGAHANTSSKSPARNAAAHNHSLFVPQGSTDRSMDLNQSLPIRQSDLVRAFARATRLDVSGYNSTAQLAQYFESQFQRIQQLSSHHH

| Molecule | tested on | test | test system | conditions | how to read | quantity | result |
| --- | --- | --- | --- | --- | --- | --- | --- |
| TCGGGTTTCATGTACGTT (dsDNA; blunt) | rcoM2 full length assumed (Paraburkholderia xenovorans, UniProt Q13IY4) | fluorescence anisotropy | double-stranded DNA, one strand shown | Fe(II)-CO | – | binding | no binding |
| AGGAGCGTGACACGTAAGACAAAAAG (dsDNA) | HY5 1-158 (Solanum lycopersicum, UniProt Q9SM50) | EMSA | double-stranded DNA, one strand shown | – | – | binding | binds |
| GAGCTGCAAGTGGATATTTGGACCTCTTTGAGGTCTTCGTTGGAAACGGGATTTCCTCATATAATGTTACACAGAAGAATTCTCAGTAACTTATTTGTGGTGTGTGTATTCAACTCACAGAGGTGAACCTTCCTTCAGAAAGAGCAGATTTGAAACACTCTTTTTGTACCC (dsDNA) | CENPM 1-171 (Homo sapiens, UniProt Q9NSP4) | EMSA | double-stranded DNA, one strand shown | – | – | binding | no binding |
| BzATP | P2X purinoceptor 7 (P2rx7, Rattus norvegicus, UniProt Q64663, I214A/Q143A) | ion current, agonist, two-electrode voltage clamp | Xenopus oocytes | 33 µM | – | normalized current | 0.27 and 0.31 and 0.36 |
| ATAAGTCACATGATGATATTTGATTTTATTATATTTTTAAAAAAAGTAAAAAATAAAAAGTAGTTTATTTTTAAAAAATAAAATTTAAAATATTTCACAAAATGATTTCCGAA (dsDNA) | CENP-I 1-229 R225D (Thermochaetoides thermophila, UniProt G0SFF7) | EMSA | double-stranded DNA, one strand shown | – | – | binding | binds |
| UUAUUGAUUGU (ssRNA) | pos-1 97-173 (Caenorhabditis elegans, UniProt G5EF15) | NMR 15N-1H HSQC | RNA | – | – | binding | binds |
| TGTTGTGTGGAATTGTGAGCGGATAACAATTTCACACAGG (dsDNA (Escherichia coli); blunt) | lacI full length assumed D149A (Escherichia coli, UniProt P03023) | filter binding | double-stranded DNA, one strand shown | – | – | binding | binds |
| DNA 1 CACTGGCCGTCTTACGGTCGCTCTGCTCGACG / DNA 2 CGACCGTAAGACGGCCAGTG (dsDNA; 20 bp, 3' 12 nt overhang) | RECQL 63-592 K171A (Homo sapiens, UniProt P46063) | fluorescence anisotropy | double-stranded DNA | together with: Mg2+ 3 mM | – | Kd | 78.8 ± 36.7 nM |
| colistin | Pseudomonas aeruginosa | – | clinical isolate RKI 598/16 | – | – | MIC | 1 µg/mL |
| TGGGTGGGTAGGGTGGGT (G-quadruplex DNA; parallel) | PARP2 full length, 1-570 (Homo sapiens) | EMSA | folded DNA | – | – | binding | no binding |
| Peginesatide | UT7/EPO | tyrosine phosphorylation, LC-MS/MS phosphoproteomics, trypsin, refers to: SEPT2 tyrosine 17 | – | 10 nM, 15 min, together with: 10 U/mL EPO | reference: vehicle | phosphorylation level | 11 fold |
| ATTATTCCCGAGTCAATTTCAAATGCT (dsDNA) | WRKY domain-containing protein 1-296 (Camellia sinensis, UniProt A0A4S4EXI7) | EMSA | double-stranded DNA, one strand shown | – | – | binding | binds |

For quick reference, copied from above:
| Molecule | tested on | test | test system | conditions | how to read | quantity | result |
| --- | --- | --- | --- | --- | --- | --- | --- |
| DNA 1 CACTGGCCGTCTTACGGTCGCTCTGCTCGACG / DNA 2 CGACCGTAAGACGGCCAGTG (dsDNA; 20 bp, 3' 12 nt overhang) | RECQL 63-592 K171A (Homo sapiens, UniProt P46063) | fluorescence anisotropy | double-stranded DNA | together with: Mg2+ 3 mM | – | Kd | 78.8 ± 36.7 nM |
